# Experimental data of several laboratories.
# Numbered parts are unrelated; each lists some results of a single study. Numbers after ± are the reported error.
# Sequence of UniProt O95382 (whole entry, looked up): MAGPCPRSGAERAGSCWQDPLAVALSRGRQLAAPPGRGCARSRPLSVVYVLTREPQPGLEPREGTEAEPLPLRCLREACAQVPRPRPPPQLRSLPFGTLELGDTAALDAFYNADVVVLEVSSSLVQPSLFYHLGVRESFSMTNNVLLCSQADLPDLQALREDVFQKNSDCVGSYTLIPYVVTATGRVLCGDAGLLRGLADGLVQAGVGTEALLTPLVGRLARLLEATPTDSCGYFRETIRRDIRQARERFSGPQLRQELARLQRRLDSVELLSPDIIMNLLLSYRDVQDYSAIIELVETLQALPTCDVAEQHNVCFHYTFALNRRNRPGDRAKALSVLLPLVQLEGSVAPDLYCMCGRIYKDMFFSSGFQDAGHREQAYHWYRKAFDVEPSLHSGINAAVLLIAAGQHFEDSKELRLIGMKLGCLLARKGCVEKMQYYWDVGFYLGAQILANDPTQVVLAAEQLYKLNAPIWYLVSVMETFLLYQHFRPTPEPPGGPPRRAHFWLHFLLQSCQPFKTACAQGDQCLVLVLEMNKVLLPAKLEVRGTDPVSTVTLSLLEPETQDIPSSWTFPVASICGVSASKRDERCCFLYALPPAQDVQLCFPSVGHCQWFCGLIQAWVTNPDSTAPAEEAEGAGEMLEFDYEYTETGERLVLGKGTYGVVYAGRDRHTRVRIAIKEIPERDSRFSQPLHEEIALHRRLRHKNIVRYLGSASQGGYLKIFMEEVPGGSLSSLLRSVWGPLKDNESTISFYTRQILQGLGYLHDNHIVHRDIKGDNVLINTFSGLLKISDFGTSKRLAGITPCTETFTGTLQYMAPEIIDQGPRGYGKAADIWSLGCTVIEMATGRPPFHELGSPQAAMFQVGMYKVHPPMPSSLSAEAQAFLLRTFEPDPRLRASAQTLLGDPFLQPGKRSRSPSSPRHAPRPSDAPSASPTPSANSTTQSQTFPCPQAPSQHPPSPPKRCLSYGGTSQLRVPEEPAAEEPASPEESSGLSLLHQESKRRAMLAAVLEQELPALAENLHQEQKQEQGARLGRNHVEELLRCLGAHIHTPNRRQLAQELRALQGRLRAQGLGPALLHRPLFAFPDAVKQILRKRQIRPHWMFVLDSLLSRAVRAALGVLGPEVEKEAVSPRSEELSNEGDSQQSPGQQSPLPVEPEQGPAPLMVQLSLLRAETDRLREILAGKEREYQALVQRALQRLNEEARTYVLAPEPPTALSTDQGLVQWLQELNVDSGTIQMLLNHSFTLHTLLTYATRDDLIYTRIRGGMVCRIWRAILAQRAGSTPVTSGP
# Sequence of UniProt Q8TDX7 (whole entry, looked up): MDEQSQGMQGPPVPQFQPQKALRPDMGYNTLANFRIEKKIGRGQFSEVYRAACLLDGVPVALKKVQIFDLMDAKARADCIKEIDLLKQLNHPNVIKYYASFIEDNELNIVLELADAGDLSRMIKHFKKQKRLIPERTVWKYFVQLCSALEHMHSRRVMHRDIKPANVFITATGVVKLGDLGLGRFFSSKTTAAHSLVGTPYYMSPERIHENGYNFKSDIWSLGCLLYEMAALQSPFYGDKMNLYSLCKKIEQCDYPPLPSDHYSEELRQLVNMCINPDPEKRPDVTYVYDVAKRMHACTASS
# Sequence of UniProt P16234 (whole entry, looked up): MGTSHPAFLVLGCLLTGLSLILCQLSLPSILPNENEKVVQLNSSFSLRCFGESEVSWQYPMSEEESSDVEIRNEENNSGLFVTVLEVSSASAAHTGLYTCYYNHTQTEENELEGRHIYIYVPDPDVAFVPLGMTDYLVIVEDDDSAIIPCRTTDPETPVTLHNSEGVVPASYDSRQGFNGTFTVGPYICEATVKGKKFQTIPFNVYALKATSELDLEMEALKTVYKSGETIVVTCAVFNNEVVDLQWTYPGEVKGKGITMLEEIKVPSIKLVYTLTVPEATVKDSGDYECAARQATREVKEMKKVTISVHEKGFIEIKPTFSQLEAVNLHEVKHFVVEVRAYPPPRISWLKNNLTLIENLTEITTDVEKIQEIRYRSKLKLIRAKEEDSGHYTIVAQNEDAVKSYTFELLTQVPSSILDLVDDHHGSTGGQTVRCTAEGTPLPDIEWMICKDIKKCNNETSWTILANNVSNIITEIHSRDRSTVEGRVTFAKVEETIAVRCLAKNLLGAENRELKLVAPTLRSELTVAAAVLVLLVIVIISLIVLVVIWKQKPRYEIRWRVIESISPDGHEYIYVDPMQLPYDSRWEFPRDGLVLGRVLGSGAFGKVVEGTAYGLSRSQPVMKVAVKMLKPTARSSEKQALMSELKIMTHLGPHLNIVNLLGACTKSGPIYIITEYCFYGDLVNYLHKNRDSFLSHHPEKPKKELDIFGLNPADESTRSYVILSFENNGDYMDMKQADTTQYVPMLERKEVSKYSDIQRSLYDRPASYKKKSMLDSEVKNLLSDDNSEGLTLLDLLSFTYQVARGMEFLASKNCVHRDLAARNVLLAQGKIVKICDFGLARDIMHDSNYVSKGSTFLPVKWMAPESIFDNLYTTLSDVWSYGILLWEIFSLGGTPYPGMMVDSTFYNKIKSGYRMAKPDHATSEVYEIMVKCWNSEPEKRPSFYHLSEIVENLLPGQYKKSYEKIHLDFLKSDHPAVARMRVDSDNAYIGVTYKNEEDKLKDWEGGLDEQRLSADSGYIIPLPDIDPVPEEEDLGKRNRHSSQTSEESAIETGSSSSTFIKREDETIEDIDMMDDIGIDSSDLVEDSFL
# Sequence of UniProt Q9Y2U5 (whole entry, looked up): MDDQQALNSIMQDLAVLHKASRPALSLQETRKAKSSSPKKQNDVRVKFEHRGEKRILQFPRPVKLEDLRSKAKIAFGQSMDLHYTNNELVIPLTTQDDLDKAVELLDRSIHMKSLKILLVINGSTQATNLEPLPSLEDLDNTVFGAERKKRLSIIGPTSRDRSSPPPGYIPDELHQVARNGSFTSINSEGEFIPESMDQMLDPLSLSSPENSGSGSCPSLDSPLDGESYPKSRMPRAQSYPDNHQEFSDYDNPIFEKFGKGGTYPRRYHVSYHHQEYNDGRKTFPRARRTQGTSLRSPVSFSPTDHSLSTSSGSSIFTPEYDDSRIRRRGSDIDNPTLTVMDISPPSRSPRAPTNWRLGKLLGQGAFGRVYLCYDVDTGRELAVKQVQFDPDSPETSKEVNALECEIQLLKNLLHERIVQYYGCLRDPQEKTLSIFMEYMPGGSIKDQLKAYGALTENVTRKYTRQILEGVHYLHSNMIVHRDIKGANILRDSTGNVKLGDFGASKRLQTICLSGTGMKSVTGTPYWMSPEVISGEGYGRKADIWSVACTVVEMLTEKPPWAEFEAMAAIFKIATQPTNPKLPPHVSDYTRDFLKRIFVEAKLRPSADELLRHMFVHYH

# Set 1
# SMILES: COc1cc(C(=O)N2CCC(N3CCN(C)CC3)CC2)ccc1Nc1ncc2c(n1)N(C)c1ccccc1C(=O)N2C
# Effect on: kinase activity
target,conditions,remaining activity
ERK1,1 µM,105%
PRAK,1 µM,102 ± 13%
MAPKAP-K3,10 µM,89 ± 5%
JNK1,1 µM,85 ± 5%
EPH-A2,1 µM,98 ± 5%
TBK1,10 µM,104 ± 13%
FGF-R1,10 µM,60 ± 5%
RSK2,10 µM,59 ± 33%
p38d MAPK,10 µM,106 ± 4%
Aurora A,10 µM,5%

# Set 2
# Cell line: HaCaT
# Tested at: 100 µM
# Time: 18 h
SMILES,viability [%]
CC(C)[N+](C)(CCOC(=O)C1c2ccccc2Oc2ccccc21)C(C)C,110
CO[C@@]1(NC(=O)CSCC#N)C(=O)N2C(C(=O)O)=C(CSc3nnnn3C)CS[C@@H]21,93.9
CCCCCOC(=O)Nc1nc(=O)n([C@@H]2O[C@H](C)[C@@H](O)[C@H]2O)cc1F,99.1
O=C(O)c1ccc(-n2nc(-c3ccccc3O)nc2-c2ccccc2O)cc1,73.3
C[C@@H]1C/C=C/C=C/C=C/C=C/[C@H](O[C@@H]2O[C@H](C)[C@@H](O)[C@H](N)[C@@H]2O)C[C@@H]2O[C@](O)(C[C@@H](O)C[C@H]3O[C@@H]3/C=C/C(=O)O1)C[C@H](O)[C@H]2C(=O)O,96.8
Nc1ccc(S(=O)(=O)NC(=O)c2ccccc2)cc1,90.7
CCC[C@@H]1C[C@@H](C(=O)N[C@@H]([C@H]2O[C@H](SC)[C@H](OP(=O)(O)O)[C@@H](O)[C@H]2O)[C@H](C)Cl)N(C)C1,97.7
CC1(C)O[C@@H]2C[C@H]3[C@@H]4CCC5=CC(=O)C=C[C@]5(C)[C@H]4[C@@H](O)C[C@]3(C)[C@]2(C(=O)CO)O1,96.6
CN/C(=N/CCSCc1nc[nH]c1C)NC#N,110
[H]/N=C(\N/C(=N/[H])NCCCCCCNC(=N)NC(=N)Nc1ccc(Cl)cc1)Nc1ccc(Cl)cc1,19.2
C=C[C@H]1[C@H](O[C@@H]2O[C@H](CO)[C@@H](O)[C@H](O)[C@H]2O)OC=C2C(=O)OCC[C@]21O,114
O=C(/C=C/c1ccc(O)cc1)c1ccc(O)cc1O,30.9
CC1(C)O[C@@H]2C[C@H]3[C@@H]4C[C@H](F)C5=CC(=O)C=C[C@]5(C)[C@@]4(F)[C@@H](O)C[C@]3(C)[C@]2(C(=O)CO)O1,97.2
COC(=O)[C@@H]1CC2=CC(=O)CC[C@]2(C)[C@@]23O[C@@H]2C[C@@]2(C)[C@@H](CC[C@@]24CCC(=O)O4)[C@H]13,117
COc1ccc([C@@H]2CC(=O)c3c(O)cc(O[C@@H]4O[C@H](CO[C@@H]5O[C@@H](C)[C@H](O)[C@@H](O)[C@H]5O)[C@@H](O)[C@H](O)[C@H]4O)cc3O2)cc1OC,99
Brc1c(NC2=NCCN2)ccc2nccnc12,118

# Set 3
# Structure (SMILES): C[C@H](c1ccnc(Nc2nc3ccc(-c4cc(N(C)C)ncn4)cc3[nH]2)c1)N1CCN(C(=O)CC(F)(F)F)CC1
# Effect on: cell-free assay
# Technique: competition with immobilised ligand
# Tested at: 0.1 µM
target,remaining binding [%]
"Ephrin type-A receptor 7 (EPHA7, Homo sapiens, UniProt Q15375)",100
"Bone morphogenetic protein receptor type-1B (BMPR1B, Homo sapiens, UniProt O00238)",86
"Receptor-type tyrosine-protein kinase FLT3, autoinhibited (FLT3, Homo sapiens, UniProt P36888)",95
"Serine/threonine-protein kinase/endoribonuclease IRE1 (ERN1, Homo sapiens, UniProt O75460)",86
"Leucine-rich repeat serine/threonine-protein kinase 2 (LRRK2, Homo sapiens, UniProt Q5S007)",94
"Epidermal growth factor receptor (EGFR, Homo sapiens, UniProt P00533, G719S)",91
"LIM domain kinase 1 (LIMK1, Homo sapiens, UniProt P53667)",100
"Serine/threonine-protein kinase tousled-like 2 (TLK2, Homo sapiens, UniProt Q86UE8)",99
"Serine/threonine-protein kinase Nek7 (NEK7, Homo sapiens, UniProt Q8TDX7)",100
"Proto-oncogene tyrosine-protein kinase receptor Ret (RET, Homo sapiens, UniProt P07949, M918T)",86
"Mitogen-activated protein kinase kinase kinase 2 (MAP3K2, Homo sapiens, UniProt Q9Y2U5)",100
"Serine/threonine-protein kinase PLK4 (PLK4, Homo sapiens, UniProt O00444)",96
"Mitogen-activated protein kinase kinase kinase 6 (MAP3K6, Homo sapiens, UniProt O95382)",100
"Platelet-derived growth factor receptor alpha (PDGFRA, Homo sapiens, UniProt P16234)",99
"Mitogen-activated protein kinase 11 (MAPK11, Homo sapiens, UniProt Q15759)",89

# Set 4
# Target: Platelet-derived growth factor receptor beta (PDGFRB, Homo sapiens, UniProt P09619)
# Sequence of UniProt P09619 (whole entry, looked up): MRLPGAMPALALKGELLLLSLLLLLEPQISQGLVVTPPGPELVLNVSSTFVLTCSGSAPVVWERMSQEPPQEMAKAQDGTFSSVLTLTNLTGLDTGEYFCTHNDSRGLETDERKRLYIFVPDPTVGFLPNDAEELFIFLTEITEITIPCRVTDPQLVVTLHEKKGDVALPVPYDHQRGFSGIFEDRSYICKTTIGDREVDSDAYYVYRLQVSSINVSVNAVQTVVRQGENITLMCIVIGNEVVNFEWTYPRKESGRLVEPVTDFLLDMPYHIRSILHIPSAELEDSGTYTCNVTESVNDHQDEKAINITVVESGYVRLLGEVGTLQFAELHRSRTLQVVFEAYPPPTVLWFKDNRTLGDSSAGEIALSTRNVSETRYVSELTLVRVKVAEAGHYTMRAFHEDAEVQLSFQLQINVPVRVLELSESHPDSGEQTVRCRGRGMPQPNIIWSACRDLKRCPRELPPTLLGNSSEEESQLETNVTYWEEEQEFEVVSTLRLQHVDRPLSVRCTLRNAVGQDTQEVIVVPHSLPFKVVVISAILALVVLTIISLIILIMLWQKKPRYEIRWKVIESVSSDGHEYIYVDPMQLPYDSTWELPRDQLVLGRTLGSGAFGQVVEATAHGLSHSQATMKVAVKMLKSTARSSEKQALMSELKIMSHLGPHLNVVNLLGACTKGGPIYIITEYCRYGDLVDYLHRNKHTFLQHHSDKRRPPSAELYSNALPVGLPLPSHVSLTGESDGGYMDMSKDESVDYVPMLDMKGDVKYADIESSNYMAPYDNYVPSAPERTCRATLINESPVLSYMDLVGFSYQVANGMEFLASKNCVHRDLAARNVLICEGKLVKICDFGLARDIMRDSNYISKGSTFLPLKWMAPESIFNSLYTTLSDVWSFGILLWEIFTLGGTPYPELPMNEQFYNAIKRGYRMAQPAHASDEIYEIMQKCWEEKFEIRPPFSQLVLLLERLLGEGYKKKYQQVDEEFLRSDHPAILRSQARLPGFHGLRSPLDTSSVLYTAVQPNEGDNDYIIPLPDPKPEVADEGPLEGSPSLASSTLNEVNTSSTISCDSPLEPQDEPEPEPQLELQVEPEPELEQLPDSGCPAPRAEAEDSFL
# Effect on: enzyme activity
# Action: inhibitor
# Tested at: 0.5 µM
# Relative to: control
SMILES,remaining activity
c1ccc2c(-c3ccncc3)c[nH]c2c1,105%
N#Cc1cnc2cnc(NCc3cccnc3)cc2c1Nc1ccc(F)c(Cl)c1,101%
COc1cccc(-c2cc(=O)c3ccccc3o2)c1N,99.4%
O=C1Nc2ccc(Br)cc2/C1=C/c1cc2c([nH]1)CCCC2,58.8%
O=c1cc(N2CCOCC2)oc2c(-c3ccccc3)cccc12,102%
O=C1NC(=O)c2c1c1c3ccccc3[nH]c1n1cncc21,68.4%
COc1ccc(COc2ccc(Cc3cnc(N)nc3N)cc2OC)cc1,98.2%
COc1ccc2c(c1)c(C1=C(c3c[nH]c4ccccc34)C(=O)NC1=O)cn2CCCN(C)C,75.8%
CN1CCN(c2ccc3nc(-c4c(N)c5c(F)cccc5[nH]c4=O)[nH]c3c2)CC1,17.2%
O=C(c1cc2cc(O)ccc2[nH]1)c1cc2cc(O)ccc2[nH]1,41.7%
Cc1cc(Nc2cc(N3CCN(C)CC3)nc(Sc3ccc(NC(=O)C4CC4)cc3)n2)[nH]n1,71.5%
O=C1Cc2c([nH]c3ccc(Br)cc23)-c2ccccc2N1,93.2%
O=C1Nc2ccccc2/C1=C\c1c(Cl)[nH]c2ccccc12,102%
Cc1ccc(S(=O)(=O)/C=C/C#N)cc1,103%
O=Nc1c(-c2c(O)[nH]c3cc(Br)ccc23)[nH]c2ccccc12,35.2%
CN(C)S(=O)(=O)c1ccc2c(c1)/C(=C/c1cc3c([nH]1)CCCC3)C(=O)N2,96.5%
CCCCc1c(-c2ccc(OC)cc2)[nH]c2nccnc12,95.9%

# Set 5
# Target: Beta-1 adrenergic receptor (ADRB1, Homo sapiens, UniProt P08588)
# Sequence of UniProt P08588 (whole entry, looked up): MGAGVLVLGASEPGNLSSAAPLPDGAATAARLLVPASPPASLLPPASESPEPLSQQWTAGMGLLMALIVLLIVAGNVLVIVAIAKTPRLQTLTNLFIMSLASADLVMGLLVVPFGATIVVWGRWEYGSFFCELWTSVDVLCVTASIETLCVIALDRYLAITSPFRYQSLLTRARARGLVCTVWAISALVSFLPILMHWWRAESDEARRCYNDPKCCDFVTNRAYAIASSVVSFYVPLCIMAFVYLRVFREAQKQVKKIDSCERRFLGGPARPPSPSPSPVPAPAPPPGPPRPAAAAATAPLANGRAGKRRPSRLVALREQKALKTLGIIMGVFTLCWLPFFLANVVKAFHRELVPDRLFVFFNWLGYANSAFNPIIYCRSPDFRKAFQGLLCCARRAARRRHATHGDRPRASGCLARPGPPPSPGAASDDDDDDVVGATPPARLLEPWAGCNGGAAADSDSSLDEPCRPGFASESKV
# Action: antagonist
SMILES,IC50 [µM]
Cc1noc2c(-c3cccnc3NCC3CCOCC3)cc(-c3ccccc3)nc12,≥ 100
COc1ccccc1N1CCN(c2ncnc3c2CN(C)CC3)CC1,≥ 100
CCN(CC)c1ccc2c(c1)OC(=O)/C(=C/Nc1ccc(CC(=O)NNc3c4c(nc5ccccc35)CCCC4)cc1)C2=O,≥ 100
O=c1cc(N2CCNCC2)nc2sc3ccc4ccccc4c3n12,≥ 100
OC(COc1ccc(CN2CC(Oc3ccccc3)C2)cc1)CN1CCCCC1 (centres unmarked),≥ 100
CS(=O)(=O)N(CC(O)Cn1c2ccccc2c2ccccc21)c1ccc(F)cc1 (centres unmarked),≥ 100
O=C1c2cnc(-c3ccccc3F)nc2OCCN1c1cccc(C(F)(F)F)c1,≥ 100
Cc1noc2c(-c3cccc(O)c3)cc(-c3cccs3)nc12,≥ 100
c1cc(-c2cc3c(ccn3Cc3ccncc3)c(N3CCOCC3)n2)c2cn[nH]c2c1,≥ 100
Cc1oc(C(O)c2ccccc2)nc1C(=O)NCCc1c[nH]cn1 (centres unmarked),≥ 100
COc1cc(OC)c2ccc(=O)oc2c1,≥ 100
CN1CCC(Cn2ccc3c(N4CCOCC4)nc(-c4cccc5[nH]ccc45)cc32)CC1,≥ 100

# Set 6
# Organism: Sarcocystis neurona
# Effect on: parasite growth
# Tested at: 10 µM
# Time: 96 h
Structure (SMILES),inhibition
Cc1onc(-c2ccccc2)c1-c1ccc(S(N)(=O)=O)cc1,-15.7%
CCCN1C[C@H](CSC)C[C@@H]2c3cccc4[nH]cc(c34)C[C@H]21,-12.1%
CC1(C)O[C@@H]2[C@@H](CO[C@@]3(COS(N)(=O)=O)OC(C)(C)O[C@@H]23)O1,-12.5%
Nc1ncnc2c1ncn2[C@@H]1O[C@H](CO)[C@@H](O)[C@@H]1O,-14.7%
CN(C)CCCSc1ccccc1NC(=O)/C=C/c1ccccc1,-5.6%
CC(C)(C)NC(=O)[C@@H]1CN(Cc2cccnc2)CCN1C[C@@H](O)C[C@@H](Cc1ccccc1)C(=O)N[C@H]1c2ccccc2C[C@H]1O,-13.9%
Cc1cc2c(s1)Nc1ccccc1N=C2N1CCN(C)CC1,-7.2%
CC(=O)OCC(=O)[C@@]12OC3(CCCC3)O[C@@H]1C[C@H]1[C@@H]3CCC4=CC(=O)C=C[C@]4(C)[C@@]3(F)[C@@H](O)C[C@@]12C,-1.7%
Oc1ncnc2[nH]ncc12,-17.5%
O=C(O)CCNC(=O)c1ccc(/N=N/c2ccc(O)c(C(=O)O)c2)cc1,-15.4%
CN(C)CCC(c1ccc(Cl)cc1)c1ccccn1 (centres unmarked),-9.5%
CC(=O)CCCCn1c(=O)c2c(ncn2C)n(C)c1=O,-7.9%
CN1CCC(=C2c3ccccc3CC(=O)c3sccc32)CC1,-13.2%

# Set 7
# Organism: Plasmodium berghei
# Action: inhibitor
# Cell line: Huh-7
# Strain: GFP-expressing sporozoites, liver stage
# Tested at: 10 µM
# Time: 24 h
# Relative to: untreated control
Structure (SMILES),infection rate [%]
Cc1nnc(SCC2=C(C(=O)O)N3C(=O)[C@@H](NC(=O)Cn4cnnn4)[C@H]3SC2)s1,98.4
CC(C)(Oc1ccc(CCNC(=O)c2ccc(Cl)cc2)cc1)C(=O)O,107
N=C(N)NC(=O)c1nc(Cl)c(N)nc1N,94.5
NS(=O)(=O)c1cc(C2(O)NC(=O)c3ccccc32)ccc1Cl (centres unmarked),101
CCCCN(CCCC)CCCOC(=O)c1ccc(N)cc1,112
CN/C(=N\CCSCc1nc[nH]c1C)NC#N,90.6
CCN(CC)C(=O)c1cccc(C)c1,82.6
COC(=O)[C@H](c1ccccc1Cl)N1CCc2sccc2C1,103
Oc1c(Cl)cc(Cl)c2cccnc12,34.8
CC(=O)Nc1c(I)cc(I)c(C(=O)O)c1I,80.1
NCCCCCC(=O)O,99.1
Nc1ncnc2c1ncn2[C@@H]1O[C@H](COP(=O)(O)O)[C@@H](O)[C@H]1O,24.6
O=C(OOC(=O)c1ccccc1)c1ccccc1,96.1
CC(C)NC(=N)NC(=N)Nc1ccc(Cl)cc1,5.06

# Mixed results
Compound,target,test,system,quantity,result
CCC1(O)CC2c3cc(OC)c(OC)cc3CCN2CC1CC(C)C (centres unmarked),"Synaptic vesicular amine transporter (SLC18A2, Homo sapiens, UniProt Q05940)","[3H]dopamine uptake, inhibitor",HEK293 hVMAT2 membranes,Ki,0.0195 ± 0.001 µM
